Experimental data gathered from unrelated publications.
Protocols differ between the studies behind these lines. “And” joins repeats or separate records; there may be more than shown. ± marks the error that the study gave.

SMILES	system	setting	plasma concentration
O=C1C2CC3CC1CC(C(=O)N1CCN(c4ccc([N+](=O)[O-])c5ncccc45)CC1)(C3)C2	ICR mice male, plasma	intravenous, 1 mg/kg, 1 h	6.29 ng/mL
O=C(NS(=O)(=O)c1cccs1)c1cc2ccccc2n1Cc1ccc(Br)c2ccccc12	rats	oral, dose not given, 24 h	not detected
C=C[C@]1(C)C[C@@H](OC(=O)CSc2ccc(NC(=O)c3ccco3)cc2)[C@]2(C)[C@H](C)CC[C@]3(CCC(=O)[C@H]32)[C@@H](C)[C@@H]1O	Mycoplasma gallisepticum-infected chickens, plasma	intramuscular, 80 mg/kg, 0.5 h	7530 ng/mL and 7450 ng/mL and 7260 ng/mL and 10200 ng/mL and 7020 ng/mL and 10700 ng/mL and 7160 ng/mL and 7420 ng/mL
C=CC(=O)N1CCCC(n2c(=O)c3ncccc3n(Cc3ccc(Oc4ccccc4)cc3)c2=O)C1 (centres unmarked)	male BALB/c mice, plasma	intraperitoneal, 200 mg/kg, 1 h	97300 ng/mL and 89400 ng/mL
Cc1noc(C)c1Cn1cc(N2C(=O)CN(Cc3cccc(O[C@@H]4O[C@H](C(=O)O)[C@@H](O)[C@H](O)[C@H]4O)c3)C2=O)cn1	Sprague-Dawley rat, male	oral, 10 mg/kg of parent drug, 4 h	381 ng/mL
Nc1nonc1-c1nnc2c(n1)-c1ccccc1C2=O	ICR mice, plasma	intraperitoneal, 30 mg/kg, 0.5 h	7.12 ± 1.17 µM
O=C1CCC(N2Cc3cc(C(=O)O)c(F)cc3C2=O)C(=O)N1 (centres unmarked)	cynomolgus monkey, male	oral, 0.3 mg/kg parent drug, 6 h	2.1 ± 2.1 ng/mL
COc1cc(N2CCN(C(=O)C3CCCN3)CC2)ccc1Nc1ncc(Cl)c(Nc2ccccc2P(C)(C)=O)n1 (centres unmarked)	mouse, plasma	oral, 10 mg/kg, 10 h	86.8 ng/mL and 129 ng/mL
Cc1nn(-c2nc3c(F)cc(F)cc3s2)c(O)c1C(c1ccc(C(F)(F)F)cc1)c1c(C)nn(-c2nc3c(F)cc(F)cc3s2)c1O	ICR mouse	intraperitoneal, 10 mg/kg, 0.25 h, below LLOQ	617 ng/mL and 539 ng/mL and 540 ng/mL
[2H]C([2H])([2H])C1(C([2H])([2H])[2H])NC(=O)N(c2ccc(F)c(C(C)(F)F)c2)C1=O	male Swiss outbred mice, plasma	oral, 100 mg/kg, 1 h	31700 ± 4060 ng/mL
CCC(=O)N(C)c1ccc(Cl)c(Cl)c1	female C57BL/6 mice	subcutaneous, 2 mg/kg, 0.5 h	285 ng/mL
